# Measurements from different studies.
# Every numbered part comes from another study and shows a few of its results, in no order. Substitutions count along the parent as printed.

# Set 1
# Target: CCNB1, cyclin fold, Cln2 fusion (human)
# Method: yeast growth competition, sequencing
# Matrix: yeast
# Setting: weak parent motif
# Reference: not given
# Direction: higher = stronger binding
# Parent: RBL1 docking peptide (human); GSAKRRLFGEDPP
Substitution,normalised enrichment score
GSAQRRLFGEDPP [K4Q],-0.325
GSAKRRLFGEDPA [P13A],0.0994
GSAKRRLFGEDDP [P12D],0.666
GSAKRRLVGEDPP [F8V],0.602
GSAKRRHFGEDPP [L7H],-0.408
GSAKRRLFIEDPP [G9I],1.13
GSAKRGLFGEDPP [R6G],0.523
GSAKRRLFGEGPP [D11G],0.558
GSAKRRLRGEDPP [F8R],0.741
GSAMRRLFGEDPP [K4M],0.134
GSAKRRLAGEDPP [F8A],0.0395
GYAKRRLFGEDPP [S2Y],0.704
GSAKHRLFGEDPP [R5H],0.362
GSYKRRLFGEDPP [A3Y],0.771
GSAKRRLFGEDPC [P13C],0.417
GSAKQRLFGEDPP [R5Q],0.351
GSALRRLFGEDPP [K4L],0.355
GSAKRRLFGEDPD [P13D],1.19
GSAKRDLFGEDPP [R6D],-0.429
GSAKRRLFGEDSP [P12S],1.23
GSAKRRLFGEDPI [P13I],0.301
GSAKRRLFMEDPP [G9M],0.452
GSLKRRLFGEDPP [A3L],0.749
GSAKRRIFGEDPP [L7I],1.36
GRAKRRLFGEDPP [S2R],0.984

# Set 2
# Target: ABI1, truncated, D143A, DHFR fusion (Arabidopsis thaliana)
# Method: DHFR PCA, deep sequencing
# Matrix: yeast
# Setting: methotrexate growth selection, single substitutions
# Together with: (+)-ABA 2500 µM
# Reference: wild-type fitted maximum
# Direction: higher = stronger binding
# Parent: PYL1, truncated, DHFR fusion (Arabidopsis thaliana); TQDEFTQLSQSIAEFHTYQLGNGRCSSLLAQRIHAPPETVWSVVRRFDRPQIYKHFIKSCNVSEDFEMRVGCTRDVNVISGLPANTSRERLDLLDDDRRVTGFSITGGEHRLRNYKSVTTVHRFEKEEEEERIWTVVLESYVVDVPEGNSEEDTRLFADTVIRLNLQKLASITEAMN; partner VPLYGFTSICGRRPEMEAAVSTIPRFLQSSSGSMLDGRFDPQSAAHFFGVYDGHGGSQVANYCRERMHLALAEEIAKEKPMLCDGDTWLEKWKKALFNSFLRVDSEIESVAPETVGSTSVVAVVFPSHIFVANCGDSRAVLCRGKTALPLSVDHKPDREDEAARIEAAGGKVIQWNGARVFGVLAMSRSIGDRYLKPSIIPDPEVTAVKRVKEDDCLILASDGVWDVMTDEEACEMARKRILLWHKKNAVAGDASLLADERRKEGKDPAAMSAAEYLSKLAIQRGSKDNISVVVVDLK
Substitution,relative binding score [%]
R32K,105
Y115R,-3.95
G102P,-4.7
L20W,91.4
P83D,90.9
E131T,107
L138D,14.6
E67T,99.2
F5S,99.9
I105R,8.07
F15H,91.9
S59Q,94.1

# Set 3
# Target: DDIT3, bZIP domain (human)
# Method: DHFR protein complementation
# Matrix: yeast
# Setting: single substitutions, most at no-binding floor
# Reference: wild-type JUN-FOS pair
# Direction: higher = stronger binding
# Parent: JUN, bZIP domain (human); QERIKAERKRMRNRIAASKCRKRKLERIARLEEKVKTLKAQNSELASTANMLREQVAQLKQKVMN; partner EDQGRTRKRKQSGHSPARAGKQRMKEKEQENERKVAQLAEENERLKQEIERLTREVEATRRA
Substitution,binding fitness [natural log]
A29W,-0.149
L52D,-1.1
L31N,-0.768
Q55N,-0.437
K36F,-0.315
V56D,-1.24
S43W,-0.108
L45S,-1.22
E32D,-0.00514
K36M,0.117
R30Y,0.00568
E44P,-1.05
Q41S,-1.01
V35H,-0.538
Q41R,-0.0647
A29T,-0.053
E32V,-0.21
L45T,-1.39
A40Q,0.177

# Set 4
# Target: Histone acetyltransferase KAT6A, winged helix 1, GST fusion (KAT6A, Homo sapiens, UniProt Q92794, residues 1-85)
# Method: protein binding microarray
# Molecule type: double-stranded DNA, one strand shown
# Matrix: in vitro
# Tested at: not given
# Setting: 8-mer, flanks averaged, mean of 2 arrays, mostly near background
# Reference: not given
# Direction: higher = stronger binding
# Construct (chain): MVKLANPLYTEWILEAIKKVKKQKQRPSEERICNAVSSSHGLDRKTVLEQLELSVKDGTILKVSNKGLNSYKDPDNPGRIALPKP
Oligonucleotide,E-score
CGCCGACA,0.349
AGCACTAG,-0.0844
GTATAACA,-0.08
TAGAAATA,-0.278
TGTGGAAA,-0.217
CGGAGGCC,0.251
CACCACCC,0.0286
ATCTTTGG,-0.293
CCTTGCAG,-0.0537
CTTGTGTA,-0.132
ATCCGGCA,-0.00709
CTCGTAAA,0.0078
CCCCTCGC,0.0439
GACTCCGA,0.104
GGGGCCGA,0.222
GACGTAGA,0.0137
ACTTTGTC,-0.136

# Set 5
# Target: Sal-like protein 4, full length isoform A (SALL4, Homo sapiens, UniProt Q9UJQ4, residues 1-1053)
# Sequence of UniProt Q9UJQ4 (whole entry, looked up): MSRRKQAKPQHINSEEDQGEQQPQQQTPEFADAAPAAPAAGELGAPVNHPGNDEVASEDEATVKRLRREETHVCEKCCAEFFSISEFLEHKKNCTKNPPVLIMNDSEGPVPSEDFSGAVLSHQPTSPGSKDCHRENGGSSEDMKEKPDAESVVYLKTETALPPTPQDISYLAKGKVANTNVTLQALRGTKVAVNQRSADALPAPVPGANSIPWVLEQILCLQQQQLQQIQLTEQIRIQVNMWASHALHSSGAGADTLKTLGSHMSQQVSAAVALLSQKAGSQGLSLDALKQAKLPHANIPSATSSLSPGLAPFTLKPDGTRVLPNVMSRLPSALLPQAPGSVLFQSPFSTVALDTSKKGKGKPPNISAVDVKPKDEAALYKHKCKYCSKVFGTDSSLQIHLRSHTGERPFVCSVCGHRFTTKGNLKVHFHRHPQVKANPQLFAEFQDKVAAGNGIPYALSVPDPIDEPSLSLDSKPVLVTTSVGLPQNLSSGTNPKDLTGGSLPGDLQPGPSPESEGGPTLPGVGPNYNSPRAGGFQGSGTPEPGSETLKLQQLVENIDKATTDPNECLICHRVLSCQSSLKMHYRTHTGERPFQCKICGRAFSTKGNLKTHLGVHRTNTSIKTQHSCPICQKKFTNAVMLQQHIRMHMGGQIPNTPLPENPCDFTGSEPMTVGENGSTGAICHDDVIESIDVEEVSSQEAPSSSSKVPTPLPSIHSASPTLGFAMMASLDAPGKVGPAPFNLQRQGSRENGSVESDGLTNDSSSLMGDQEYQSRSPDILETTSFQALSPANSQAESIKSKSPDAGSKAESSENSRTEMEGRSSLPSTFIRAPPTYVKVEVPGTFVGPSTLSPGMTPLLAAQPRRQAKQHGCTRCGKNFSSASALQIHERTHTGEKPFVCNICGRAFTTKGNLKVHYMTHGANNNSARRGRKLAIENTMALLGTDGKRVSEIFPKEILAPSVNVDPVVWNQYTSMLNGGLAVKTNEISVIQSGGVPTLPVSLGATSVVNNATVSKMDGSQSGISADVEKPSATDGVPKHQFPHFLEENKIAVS
# Method: universal PBM
# Molecule type: double-stranded DNA, one strand shown
# Matrix: in vitro
# Tested at: 600 nM
# Setting: 8-mer, flanks averaged, mean of replicates
# Direction: higher = stronger binding
Oligonucleotide,E-score
AATCACAC,0.129
ATAGTCCC,-0.0624
AATCCAAC,0.0667
TAACAAAA,0.35
CGAAGGTA,0.0636
GCACCCAA,-0.279
TGAACAAA,0.213
AGTGGCGC,-0.167
AGCCGAAA,0.0432
ACGGGGCG,-0.225
AACTTGGT,0.166
ACCTCGGC,-0.291
AAGTAACC,0.0997
TCTCTAAA,0.13
ACCGGCCG,-0.376
ACCCCAGT,-0.223
ACGATAAG,0.123
ACAACTTA,0.19
GCGACTCA,-0.159
ATCCTTTG,0.0813
CACTTGCA,0.0498
AGCCAGTA,-0.193
AGGGTGCC,-0.177
AAGGCGAA,-0.107
CAAAGCAC,0.0287

# Set 6
# Target: Interferon regulatory factor 5, full length, phosphomimetic (IRF5, Homo sapiens, UniProt Q13568-2, residues 1-514, S451D/S453D/S456D/S462D)
# Method: protein-binding microarray
# Molecule type: double-stranded DNA, one strand shown
# Matrix: in vitro
# Tested at: 940 nM top
# Setting: 60-bp whole probe
# Together with: salmon DNA 0.4 mg/ml
# Reference: random background probes
# Direction: higher = stronger binding
# All sequences stand within: GCCTAGCAC … GTCTTGATTCGCTTGACGCTGCTG
Oligonucleotide,fitted relative affinity
TTAGATATAGGGTATCGATTAGTGCTA,1.56 z-score
TTAGATCTCAGTTCCGATTAGTGCTAG,1.29 z-score
ATAGGTTTCGGTTCCGGTTAGTGCTAG,14.3 z-score
GAAGGTTTCGGGTTTCGGGACGTGCTA,7.95 z-score
GACGGACTGGGGTATCGGGTCGTGCTA,1.06 z-score
TTAGATTCCAGTTTCGCTTAGTGCTAG,5.45 z-score
TCCTGCTGTACCCCTAGGGCGTGCTAG,-0.185 z-score
TTAGTTATCAGTTTCGATTAGTGCTAG,8.07 z-score
ATGTGTTTAAGAATGTTTTTGTGCTAG,-0.123 z-score
TTAGGTCCCGGTTTCGGTTAGTGCTAG,7.81 z-score
GACGGTATCGGTTTCGGCACGTGCTAG,9.91 z-score
TCAGGTATCGGTCTCGGTTAGTGCTAG,8.77 z-score
TTAGGGCTCCTTTTCCTTTAGTGCTAG,0.176 z-score
TCAGATTGGTTGAACATACTGTGCTAG,-0.0454 z-score
TCACTTTTGGCTTTCCTACTGTGCTAG,1.54 z-score
TTATGTCTGGGTATTTTTTCGTGCTAG,0.605 z-score
TCATTTTTTTTTCCCTGACTGTGCTAG,1.73 z-score
GACGGACTGCTTTTCTTGACGTGCTAG,0.0858 z-score
TTAGAACTGGTGTATCGATTAGTGCTA,0.854 z-score
TTAGGACTAGGTTTCGGTTAGTGCTAG,7.38 z-score
TCAAGTTTACCCATCTCCAGGTGCTAG,0.194 z-score
TTCTTTATGCACTCTCTACATGTGCTA,1.19 z-score
TTAGGTATCGACTTTCGGATAGTGCTA,5.66 z-score
TTAGATCTCAGTCTCGAGTAGTGCTAG,1.38 z-score
GACGGTCTCCTACTGCTTACGTGCTAG,0.104 z-score

# Excerpt of the above (set 4):
Oligonucleotide,E-score
ATCTTTGG,-0.293
GTATAACA,-0.08
GACTCCGA,0.104
ATCCGGCA,-0.00709
CGCCGACA,0.349
GACGTAGA,0.0137
CGGAGGCC,0.251
TGTGGAAA,-0.217
ACTTTGTC,-0.136
CTTGTGTA,-0.132
CCTTGCAG,-0.0537
TAGAAATA,-0.278
GGGGCCGA,0.222
CCCCTCGC,0.0439
